Published values from different studies.
Every numbered part comes from another study and shows a few of its results, in no order. Values joined by “and” are separate records of one study, mostly repeats; a detail may differ.

Series 1
Target: Replicase polyprotein 1ab, nsp13 helicase (rep, Severe acute respiratory syndrome coronavirus 2, UniProt P0DTD1)
Action: inhibitor
Tested at: 20 µM
For CC(C)n1nc(-c2ccc3oc(N)nc3c2)c2c(N)ncnc21, the inhibition was 1.71%.
The inhibition of CC[C@]12CCCN3CCc4c(n(c5ccccc45)C(=O)C1)[C@@H]32 is reported as -2.09%.
The inhibition of O=C(O)C1=C(CSc2nnnn2CS(=O)(=O)O)CS[C@@H]2[C@H](NC(=O)[C@H](O)c3ccccc3)C(=O)N12 is reported as 1.68%.
With Cc1c(F)cc(C(=O)NC2CC2)cc1-c1ccc(C(=O)NCC(C)(C)C)cn1 the inhibition was 8.58%.
Cc1ccc(N2CCN(CCC3NC(=O)c4ccccc43)CC2)cc1C (centres unmarked) has an inhibition of 2.92%.
For C[n+]1c2cc(N)ccc2cc2ccc(N)cc21, the inhibition was 45.5%.
For NC(N)=Nc1nc(CSCC/C(N)=N/S(N)(=O)=O)cs1, the inhibition was 1.38%.
C=CCC1(CC(C)C)C(=O)NC(=O)NC1=O gave an inhibition of 4.09%.
CC(=O)NC[C@H]1CN(c2ccc(N3CCN(C(=O)CO)CC3)c(F)c2)C(=O)O1 has an inhibition of 2.45%.
O[C@@H]1CCCC[C@H]1N1CCC(c2ccccc2)CC1 (racemic) gave an inhibition of -2.09%.
With C/C=C/C=C/C(=O)O the inhibition was 4.69%.
Clc1ccc(C(Cn2ccnc2)OCc2csc3c(Cl)cccc23)c(Cl)c1 (centres unmarked) has an inhibition of -1.7%.
With CC(=O)Oc1ccccc1C(=O)Nc1ncc([N+](=O)[O-])s1 the inhibition was 3.07%.
The inhibition of O=C(NC[C@H]1CN(c2ccc(N3CCOCC3=O)cc2)C(=O)O1)c1ccc(Cl)s1 is reported as 2.95%.
O=c1c(-c2ccccc2)c1-c1ccccc1 has an inhibition of 5.81%.
For N[C@H]1C(O)O[C@H](CO)[C@@H](O)[C@@H]1O (some centres unmarked), the inhibition was 7.66%.
CCOC(=O)c1ncc2[nH]c3cccc(OC(C)C)c3c2c1C gave an inhibition of 6.1%.
O=C(NCCCN1CCOCC1)c1ccc(Cl)cc1 has an inhibition of 2.89%.
The inhibition of COc1ccc(NC(=O)c2ccc(C(=N)N(C)C)cc2)c(C(=O)Nc2ccc(Cl)cn2)c1 is reported as 10.3%.
For CC[C@H]1OC(=O)[C@H](C)[C@@H](O[C@H]2C[C@@](C)(OC)[C@@H](O)[C@H](C)O2)[C@H](C)[C@@H](O[C@@H]2O[C@H](C)C[C@H](N(C)C)[C@H]2O)[C@](C)(O)C[C@@H](C)[C@@H]2N[C@@H](COCCOC)O[C@H]([C@H]2C)[C@]1(C)O, the inhibition was -0.35%.
The inhibition of NC(=O)CCCCC1CCSS1 (centres unmarked) is reported as 7.53%.
COc1ccc(-n2nc(C(N)=O)c3c2C(=O)N(c2ccc(N4CCCCC4=O)cc2)CC3)cc1 gave an inhibition of 10.6%.
CS(=O)(=O)OCCCCOS(C)(=O)=O has an inhibition of 1.78%.
C=C[C@H]1CN2CC[C@H]1C[C@@H]2[C@@H](O)c1ccnc2ccccc12 gave an inhibition of -29.7%.
With CCC[C@@H]1CC2=CC(=O)CC[C@]2(C)[C@H]2CC[C@@]3(C)[C@@H](CC[C@@]3(O)CCC(=O)O)[C@H]12 the inhibition was 3.97%.

Series 2
Target: Histone acetyltransferase KAT6A, both winged helices, GST fusion (KAT6A, Homo sapiens, UniProt Q92794, residues 1-181)
Method: protein binding microarray
Form: double-stranded DNA, one strand shown
Matrix: in vitro
Tested at: not given
Notes: 8-mer, flanks averaged, mean of 2 arrays, mostly near background
Relative to: not given
Reading: higher = stronger binding
Construct (chain): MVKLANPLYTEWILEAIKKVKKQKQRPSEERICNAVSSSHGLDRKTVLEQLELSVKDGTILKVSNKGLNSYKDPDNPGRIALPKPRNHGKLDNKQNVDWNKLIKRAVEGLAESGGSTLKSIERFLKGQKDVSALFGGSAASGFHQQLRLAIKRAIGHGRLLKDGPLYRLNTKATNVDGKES
The E-score of `AGCATAAG` is reported as -0.124.
With `AACCCCCA` the E-score was -0.129.
With `TAGGGAAA` the E-score was -0.151.
`CGAAACTA` gave an E-score of 0.0354.
For `ATTAAACA`, the E-score was -0.105.
For `GGGCGTAA`, the E-score was 0.103.
For `AGAAATCC`, the E-score was 0.115.
`ATTTTCCA` has an E-score of -0.094.

Series 3
Target: Replicase polyprotein 1ab, main protease (rep, Severe acute respiratory syndrome coronavirus 2, UniProt P0DTD1)
Read-out: enzyme activity
Action: inhibitor
Tested at: 20 µM
Notes: hit confirmation, with DTT
For C[C@H](NC(=O)/C(C#N)=C/c1cccc(Br)n1)c1ccccc1, the inhibition was 14.5%.
With C[C@@H]1O[C@@H](Oc2c(-c3cc(O)c(O)c(O)c3)oc3cc(O)cc(O)c3c2=O)[C@@H](O)[C@H](O)[C@H]1O the inhibition was -10.3%.
With Nc1nc(=S)c2ncn([C@@H]3O[C@H](CO)[C@@H](O)[C@H]3O)c2[nH]1 the inhibition was 99.3% and 12%.
The inhibition of O=c1c(O)cccc2cc(O)c(O)c(O)c12 is reported as 98.7%.
With CNC(=O)ON(C(C)=O)C(=O)NC the inhibition was 17.5%.

Series 4
Target: Sal-like protein 4, full length isoform A (SALL4, Homo sapiens, UniProt Q9UJQ4, residues 1-1053)
UniProt Q9UJQ4, sequence (whole entry, looked up): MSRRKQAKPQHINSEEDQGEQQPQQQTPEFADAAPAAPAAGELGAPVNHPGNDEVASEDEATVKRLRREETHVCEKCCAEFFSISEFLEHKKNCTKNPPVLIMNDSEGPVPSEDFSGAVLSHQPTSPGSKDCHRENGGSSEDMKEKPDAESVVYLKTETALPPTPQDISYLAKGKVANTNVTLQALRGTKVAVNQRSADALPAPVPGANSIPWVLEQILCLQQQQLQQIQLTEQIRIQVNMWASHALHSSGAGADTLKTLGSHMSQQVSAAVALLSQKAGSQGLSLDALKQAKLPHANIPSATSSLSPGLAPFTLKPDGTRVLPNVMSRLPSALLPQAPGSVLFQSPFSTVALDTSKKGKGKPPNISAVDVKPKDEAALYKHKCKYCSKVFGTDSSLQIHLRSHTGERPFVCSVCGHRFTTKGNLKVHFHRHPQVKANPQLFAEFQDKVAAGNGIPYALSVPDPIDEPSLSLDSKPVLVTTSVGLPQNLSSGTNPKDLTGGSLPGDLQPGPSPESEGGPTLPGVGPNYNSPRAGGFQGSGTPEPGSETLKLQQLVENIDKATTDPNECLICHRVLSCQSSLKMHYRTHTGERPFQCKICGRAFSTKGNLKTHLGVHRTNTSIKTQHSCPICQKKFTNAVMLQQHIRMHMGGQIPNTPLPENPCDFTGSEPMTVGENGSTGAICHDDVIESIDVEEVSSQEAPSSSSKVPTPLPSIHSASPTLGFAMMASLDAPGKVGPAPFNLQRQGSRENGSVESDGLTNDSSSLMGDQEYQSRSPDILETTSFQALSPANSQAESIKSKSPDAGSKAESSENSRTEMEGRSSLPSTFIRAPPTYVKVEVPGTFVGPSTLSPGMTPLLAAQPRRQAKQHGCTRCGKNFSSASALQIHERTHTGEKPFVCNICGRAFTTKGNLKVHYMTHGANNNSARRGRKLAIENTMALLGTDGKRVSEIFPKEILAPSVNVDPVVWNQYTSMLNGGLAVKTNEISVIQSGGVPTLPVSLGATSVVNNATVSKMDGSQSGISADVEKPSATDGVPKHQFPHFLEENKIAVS
Method: universal PBM
Form: double-stranded DNA, one strand shown
Matrix: in vitro
Tested at: 600 nM
Notes: 8-mer, flanks averaged, mean of replicates
Reading: higher = stronger binding
The E-score of `CTCCCAAC` is reported as -0.12.
With `CCAAACGG` the E-score was -0.326.
`GAGTTCCC` gave an E-score of -0.262.
For `AGAAGCTG`, the E-score was -0.125.
`CACGAACA` gave an E-score of 0.0567.
`CCCATAAG` has an E-score of 0.0524.
`CCCGTAAA` gave an E-score of 0.0787.
`AACAGGCG` has an E-score of -0.166.

Series 5
Cell line: HEK-293T
Read-out: pseudovirus infection
Method: FDA-approved drug library screen
Organism: VSV pseudotyped with SARS-CoV-2 spike
Tested at: 10 µM
Time: 16 h
Relative to: vehicle-treated
CCOc1nc2cccc(C(=O)O)c2n1Cc1ccc(-c2ccccc2-c2nnn[nH]2)cc1 has a GFP-positive cells of 95.8%.
For N#C[C@@H]1C[C@@H]2C[C@@H]2N1C(=O)[C@@H](N)C12CC3CC(CC(O)(C3)C1)C2, the GFP-positive cells was 93%.
With C[N+]12CCC(CC1)C(OC(=O)C(O)(c1ccccc1)c1ccccc1)C2 (centres unmarked) the GFP-positive cells was 93.7%.
Nc1nc2c(c(=O)[nH]1)N(C=O)C(CNc1ccc(C(=O)N[C@@H](CCC(=O)O)C(=O)O)cc1)CN2 (some centres unmarked) has a GFP-positive cells of 99.9%.
